Experimental data pooled from the literature.
± gives the spread as reported.
U2AF2: U2AF2 148-342 (Homo sapiens, UniProt P26368)
UniProt P26368, sequence (whole entry, looked up): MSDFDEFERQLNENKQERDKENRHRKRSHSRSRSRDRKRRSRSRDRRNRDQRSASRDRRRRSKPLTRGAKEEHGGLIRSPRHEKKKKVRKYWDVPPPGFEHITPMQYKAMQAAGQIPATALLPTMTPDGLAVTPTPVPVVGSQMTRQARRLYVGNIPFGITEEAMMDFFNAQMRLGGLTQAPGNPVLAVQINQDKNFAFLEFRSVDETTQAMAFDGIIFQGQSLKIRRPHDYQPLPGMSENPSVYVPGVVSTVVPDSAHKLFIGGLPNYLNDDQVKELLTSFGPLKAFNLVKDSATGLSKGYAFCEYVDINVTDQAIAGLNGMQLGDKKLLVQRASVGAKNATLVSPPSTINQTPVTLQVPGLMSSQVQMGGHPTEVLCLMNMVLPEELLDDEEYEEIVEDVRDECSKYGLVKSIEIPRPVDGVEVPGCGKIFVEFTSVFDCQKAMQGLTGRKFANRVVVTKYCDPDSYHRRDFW
B1: FasL; sequence looked up; chain QIGHPSPPPEKKELRKVAHLTGKSNSRSMPLEWEDTYGIVLLSGVKYKKGGLVINETGLYFVYSKVYFRGQSCNNLPLSHKVYMRNSKYPQDLVMMEGKMMSYCTTGQMWARSSYLGAVFNLTSADHLYVNVSELSLVNFEESQTFFGLYKL
B2: Protein S100-A8 (human); sequence looked up; chain MLTELEKALNSIIDVYHKYSLIKGNFHAVYRDDLKKLLETECPQYIRKKGADVWFKELDINTDGAVNFQEFLILVIKMGVAAHKKSHEESHKE
B3: sequence looked up; chain SGPRTLVLLDNLNVRETHSLFFRSLKDRGFELTFKTADDPSLSLIKYGEFLYDNLIIFSPSVEDFGGNINVETISAFIDGGGSVLVAASSDIGDPLRELGSECGIEFDEEKTAVIDHHNYDISDLGQHTLIVADTENLLKAPTIVGKSSLNPILFRGVGMVADPDNPLVLDILTGSSTSYSFFPDKPITQYPHAVGKNTLLIAGLQARNNARVIFSGSLDFFSDSFFNSAVQKAAPGSQRYSQTGNYELAVALSRWVFKEEGVLRVGPVSHHRVGETAPPNAYTVTDLVEYSIVIQQLSNGKWVPFDGDDIQLEFVRIDPFVRTFLKKKGGKYSVQFKLPDVYGVFQFKVDYNRLGYTHLYSSTQVSVRPLQHTQYERFIPSAYPYYASAFSMMLGLFIFSIVFLHMKEKEKSD
UniProt Q00535, sequence (whole entry, looked up): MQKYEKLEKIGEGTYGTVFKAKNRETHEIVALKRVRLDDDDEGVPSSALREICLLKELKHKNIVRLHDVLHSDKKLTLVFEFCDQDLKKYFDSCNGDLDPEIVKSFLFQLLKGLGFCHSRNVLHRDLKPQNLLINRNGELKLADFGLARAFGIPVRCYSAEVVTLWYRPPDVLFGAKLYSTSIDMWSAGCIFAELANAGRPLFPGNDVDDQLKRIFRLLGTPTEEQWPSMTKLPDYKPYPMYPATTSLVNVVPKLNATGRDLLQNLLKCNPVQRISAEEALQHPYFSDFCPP

Molecule = Peginesatide; tested on = UT7/EPO; assay = tyrosine phosphorylation, LC-MS/MS phosphoproteomics, GluC, item: STAT5B tyrosine 699; conditions = 10 nM, 15 min, with: 10 U/mL EPO; scale = relative to: vehicle; endpoint = phosphorylation level; result = 75.2 fold
Molecule = UCAGGCCAU (ssRNA); tested on = U2AF2; assay = sequencing of bound RNA; test system = RNA; conditions = motif only; endpoint = Kd; result = 6.51 µM
Molecule = colistin; tested on = Enterobacter cloacae; test system = clinical isolate RKI 5/14; endpoint = MIC; result = ≤ 0.5 µg/mL
Molecule = MTVCNASQRQAHAQATAVSL; tested on = H460; assay = phage binding; test system = peptide; scale = relative to: targeting over control phage; endpoint = selectivity ratio; result = 150 ± 35
Molecule = GCAAGUAAC (ssRNA); tested on = U2AF2; assay = sequencing of bound RNA; test system = RNA; conditions = motif only; endpoint = Kd; result = 6.14 µM
Molecule = Malic enzyme 2 S106K (human); assay = enzyme activity, NADH absorbance; conditions = without fumarate, with: L-malate varied; endpoint = Hill coefficient; result = 1.74 ± 0.06
Molecule = B1 (FasL); tested on = mouse thymocytes; assay = inducer, flow cytometry; conditions = concentration not given; endpoint = PI-positive cells; result = 7%
Molecule = KEAFWDRCLSVINLMTSKMLQINA; tested on = Cyclin-dependent kinase 5, with p25 (CDK5, Homo sapiens, UniProt Q00535); assay = phosphotransferase activity, radiometric; test system = peptide; conditions = concentration not given, 10% DMSO, with: histone substrate; scale = relative to: p5-WT peptide; endpoint = activity change; result = 4%
Molecule = B2 (Protein S100-A8); tested on = CYB5R4 knockout human cells; assay = PP4 interaction, 3xFLAG-PP4C IP-MS; conditions = concentration not given; scale = relative to: CYB5R4 KO over parental; endpoint = log2 fold change; result = 0.67
Molecule = evodiamine; tested on = HEL; assay = cell proliferation; endpoint = IC50; result = 1.61 ± 0.16 µM
Molecule = LADPHVDEY; tested on = Jurkat expressing engineered TCR; assay = NFAT-eGFP reporter, fluorescence microscopy; test system = peptide; conditions = concentration not given, HLA-A*01:01 on EL4 cells; endpoint = GFP-positive cells; result = 0.461%
Molecule = B3; tested on = CYB5R4 knockout human cells; assay = PP4 interaction, 3xFLAG-PP4C IP-MS; conditions = concentration not given; scale = relative to: CYB5R4 KO over parental; endpoint = log2 fold change; result = -0.79
Molecule = EVEPIGLEF; tested on = Jurkat expressing engineered TCR; assay = NFAT-eGFP reporter, fluorescence microscopy; test system = peptide; conditions = concentration not given, HLA-A*01:01 on EL4 cells; endpoint = GFP-positive cells; result = 0.503%
Molecule = Talin-1 (human); tested on = CYB5R4 knockout human cells; assay = PP4 interaction, 3xFLAG-PP4C IP-MS; conditions = concentration not given; scale = relative to: CYB5R4 KO over parental; endpoint = log2 fold change; result = -0.46
Molecule = catalase; tested on = HT-29; assay = western blot, item: cyclin A, D1 and E; conditions = concentration not given, 48 h; endpoint = protein level; result = decreased
Molecule = ELDPIGLEY; tested on = Jurkat expressing engineered TCR; assay = NFAT-eGFP reporter, fluorescence microscopy; test system = peptide; conditions = concentration not given, HLA-A*01:01 on EL4 cells; endpoint = GFP-positive cells; result = 6.77%
Molecule = PTBP3 (human); tested on = CYB5R4 knockout human cells; assay = PP6 interaction, 3xFLAG-PP6C IP-MS; conditions = concentration not given; scale = relative to: CYB5R4 KO over parental; endpoint = log2 fold change; result = -0.32
Molecule = YLDPIPLGY; tested on = Jurkat NFAT-eGFP expressing engineered TCR; assay = NFAT reporter gene; test system = peptide; conditions = concentration not given, HLA-A*01:01 presentation; endpoint = GFP-positive cells; result = 0.539%
Molecule = epoetin alfa; tested on = UT7/EPO; assay = microarray, item: KLF6 (probe 208960_s_at); conditions = 5 U/mL, 90 min, with: SCF 10 nM; scale = relative to: vehicle; endpoint = mRNA level; result = 6.9 fold
Molecule = ELDIIQPDY; tested on = Jurkat NFAT-eGFP expressing engineered TCR; assay = NFAT reporter gene; test system = peptide; conditions = concentration not given, HLA-A*01:01 presentation; endpoint = GFP-positive cells; result = 0.868%
Molecule = human alpha-enolase; tested on = CYB5R4 knockout human cells; assay = PP4 interaction, 3xFLAG-PP4C IP-MS; conditions = concentration not given; scale = relative to: CYB5R4 KO over parental; endpoint = log2 fold change; result = 0.79
Molecule = 11-deoxycorticosterone; tested on = CYP11B2 (human); assay = substrate binding, stopped-flow global kinetic fitting; test system = purified enzyme; conditions = model, linear, 4 state, CS-IF, with: no adrenodoxin; endpoint = Kd; result = 2.76 µM

Excerpt of the above:
Molecule = PTBP3 (human); tested on = CYB5R4 knockout human cells; assay = PP6 interaction, 3xFLAG-PP6C IP-MS; conditions = concentration not given; scale = relative to: CYB5R4 KO over parental; endpoint = log2 fold change; result = -0.32
Molecule = YLDPIPLGY; tested on = Jurkat NFAT-eGFP expressing engineered TCR; assay = NFAT reporter gene; test system = peptide; conditions = concentration not given, HLA-A*01:01 presentation; endpoint = GFP-positive cells; result = 0.539%
Molecule = epoetin alfa; tested on = UT7/EPO; assay = microarray, item: KLF6 (probe 208960_s_at); conditions = 5 U/mL, 90 min, with: SCF 10 nM; scale = relative to: vehicle; endpoint = mRNA level; result = 6.9 fold
